Measurements from different studies.
“And” joins repeats or separate records; there may be more than shown. ± gives the spread as reported. Values after ≈ are worked out from the molar mass of the structure shown.
Organism: Klebsiella pneumoniae

SMILES | assay | system | conditions | scale | quantity | value
CNC(C)C1CCC(N)C(OC2C(N)CC(N)C(OC3OCC(C)(O)C(NC)C3O)C2O)O1 (stereo not shown) | broth microdilution | NCTC 13438 | – | reference: 5% CO2 over ambient air | MIC fold shift | 2
N=C(N)c1cccc(OCc2ccc(COc3cccc(C(=N)N)c3)cc2)c1 | – | ATCC 13883 | concentration not given, added: rifampicin | – | MIC in combination | 25 µg/mL
NC[C@H]1O[C@H](O[C@H]2[C@H](O)[C@@H](O[C@H]3O[C@H](CO)[C@@H](O)[C@H](N)[C@H]3O)[C@H](N)C[C@@H]2N)[C@H](O)[C@@H](O)[C@@H]1O | bacterial growth | – | concentration not given | – | inhibition | 10%
CC(C)C[C@H](NC(=O)[C@H](Cc1ccc(O)cc1)NC(=O)[C@@H]1CCCN1C(=O)[C@H](CCCNC(=N)N)NC(=O)[C@@H]1CCCN1C(=O)[C@H](CCCCN)NC(=O)[C@H](CC(=O)O)NC(=O)[C@@H]1CCCN1C(=O)[C@H](CCCNC(=N)N)NC(=O)C1(N)CCCCC1)C(=O)N1CCC[C@H]1C(=O)N[C@@H](CCCNC(=N)N)C(=O)N1CCC[C@H]1C(=O)N[C@@H](CCCNC(=N)N)C(=O)N1CCC[C@H]1C(=O)N1CCC[C@H]1C(=O)N[C@@H](CCCNC(=N)N)C(=O)N1CCC[C@H]1C(=O)N[C@H](C(=O)N[C@@H](CCCNC(=N)N)C(=O)N[C@@H](CSSC[C@H](NC(=O)[C@H](CCCNC(=N)N)NC(=O)[C@@H](NC(=O)[C@@H]1CCCN1C(=O)[C@H](CCCNC(=N)N)NC(=O)[C@@H]1CCCN1C(=O)[C@@H]1CCCN1C(=O)[C@H](CCCNC(=N)N)NC(=O)[C@@H]1CCCN1C(=O)[C@H](CCCNC(=N)N)NC(=O)[C@@H]1CCCN1C(=O)[C@H](CC(C)C)NC(=O)[C@H](Cc1ccc(O)cc1)NC(=O)[C@@H]1CCCN1C(=O)[C@H](CCCNC(=N)N)NC(=O)[C@@H]1CCCN1C(=O)[C@H](CCCCN)NC(=O)[C@H](CC(=O)O)NC(=O)[C@@H]1CCCN1C(=O)[C@H](CCCNC(=N)N)NC(=O)C1(N)CCCCC1)C(C)C)C(=O)NN)C(=O)NN)C(C)C | membrane disruption, propidium iodide uptake | 13883 | 90 min, 37 °C | – | MDC | 8.3 ± 0.3 µg/mL
Cc1c(CN(C)C(=O)/C=C/c2cnc3c(c2)CC(NC(=O)OC(C)(C)C)C(=O)N3)oc2ccccc12 (stereo not shown) | broth microdilution | AR-0139 | – | – | MIC | > 32 µg/mL
C[C@@H](O)[C@H]1C(=O)N2C(C(=O)O)=C(S[C@@H]3CN[C@H](C(=O)N(C)C)C3)[C@H](C)[C@H]12 | – | ATCC 700603, mouse lung infection model, lung | 10 mg/kg, 24 h | – | lung bacterial burden | 6.5 log CFU and 5.73 log CFU and 5.44 log CFU and 5.54 log CFU and 5.63 log CFU and 5.66 log CFU
CN(C)c1ccc(O)c2c1C[C@H]1C[C@H]3[C@H](N(C)C)C(O)=C(C(N)=O)C(=O)[C@@]3(O)C(O)=C1C2=O | broth microdilution | NCTC 13438 | – | reference: 5% CO2 over ambient air | MIC fold shift | 0.5
N=C(N)c1ccc(OCc2cc(COc3ccc(C(=N)N)cc3)cc(-c3ccccc3)c2)cc1 | – | ATCC 13883 | concentration not given, added: rifampicin | – | MIC in combination | 3.13 µg/mL
CN[C@H](CC(C)C)C(=O)N[C@H]1C(=O)N[C@@H](CC(N)=O)C(=O)N[C@H]2C(=O)N[C@H]3C(=O)N[C@H](C(=O)N[C@H](C(=O)O)c4cc(O)cc(O)c4-c4cc3ccc4O)[C@H](O)c3ccc(c(Cl)c3)Oc3cc2cc(c3O[C@@H]2O[C@H](CO)[C@@H](O)[C@H](O)[C@H]2O[C@H]2C[C@](C)(N)[C@H](O)[C@H](C)O2)Oc2ccc(cc2Cl)[C@H]1O | – | ATCC 27736 | 20 h | – | MBC | 1000 µg/mL (≈ 690 µM)
N=C(N)c1ccc(OCc2cc(Br)cc(COc3ccc(C(=N)N)cc3)c2)cc1 | – | ATCC 13883 | concentration not given, added: rifampicin | – | MIC in combination | 6.25 µg/mL
Cc1c(CN(C)C(=O)/C=C/c2cnc3c(c2)CCC(=O)N3)oc2ccccc12 | broth microdilution | S47889 | – | – | MIC | > 32 µg/mL
NC[C@H]1O[C@H](O[C@H]2[C@H](O)[C@@H](O[C@H]3O[C@H](CO)[C@@H](O)[C@H](N)[C@H]3O)[C@H](N)C[C@@H]2N)[C@H](N)C[C@@H]1O | broth microdilution | NCTC 13438 | – | reference: 5% CO2 over ambient air | MIC fold shift | 2
N=C(N)c1ccc(OCCC(CCOc2ccc(C(=N)N)cc2)c2ccccc2)cc1 (stereo not shown) | checkerboard | ATCC 13883 | unit not given, added: rifampicin | lower = stronger synergy | FICI | ≤ 0.047
